Experimental data collected from several papers.
Parts stem from different laboratories: compare values within a part only. Several values in a cell are separate wells, animals, samples, runs or records.
Sequence of UniProt P31152 (whole entry, looked up): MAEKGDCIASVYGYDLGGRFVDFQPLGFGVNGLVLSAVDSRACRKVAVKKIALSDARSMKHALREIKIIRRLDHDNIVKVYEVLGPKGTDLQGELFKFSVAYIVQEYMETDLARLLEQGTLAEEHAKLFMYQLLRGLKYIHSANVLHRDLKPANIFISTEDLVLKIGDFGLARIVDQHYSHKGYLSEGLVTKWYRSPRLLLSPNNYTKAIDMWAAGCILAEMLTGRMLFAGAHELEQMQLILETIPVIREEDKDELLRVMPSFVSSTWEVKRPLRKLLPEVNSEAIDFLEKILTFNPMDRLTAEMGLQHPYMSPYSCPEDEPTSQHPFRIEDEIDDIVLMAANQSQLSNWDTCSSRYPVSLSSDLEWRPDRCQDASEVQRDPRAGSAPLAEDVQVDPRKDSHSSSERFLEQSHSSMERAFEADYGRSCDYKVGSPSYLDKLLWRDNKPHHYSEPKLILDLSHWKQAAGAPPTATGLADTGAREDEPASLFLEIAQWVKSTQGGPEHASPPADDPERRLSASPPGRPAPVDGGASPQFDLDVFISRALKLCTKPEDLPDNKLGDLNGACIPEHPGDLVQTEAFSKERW
Sequence of UniProt Q99759 (whole entry, looked up): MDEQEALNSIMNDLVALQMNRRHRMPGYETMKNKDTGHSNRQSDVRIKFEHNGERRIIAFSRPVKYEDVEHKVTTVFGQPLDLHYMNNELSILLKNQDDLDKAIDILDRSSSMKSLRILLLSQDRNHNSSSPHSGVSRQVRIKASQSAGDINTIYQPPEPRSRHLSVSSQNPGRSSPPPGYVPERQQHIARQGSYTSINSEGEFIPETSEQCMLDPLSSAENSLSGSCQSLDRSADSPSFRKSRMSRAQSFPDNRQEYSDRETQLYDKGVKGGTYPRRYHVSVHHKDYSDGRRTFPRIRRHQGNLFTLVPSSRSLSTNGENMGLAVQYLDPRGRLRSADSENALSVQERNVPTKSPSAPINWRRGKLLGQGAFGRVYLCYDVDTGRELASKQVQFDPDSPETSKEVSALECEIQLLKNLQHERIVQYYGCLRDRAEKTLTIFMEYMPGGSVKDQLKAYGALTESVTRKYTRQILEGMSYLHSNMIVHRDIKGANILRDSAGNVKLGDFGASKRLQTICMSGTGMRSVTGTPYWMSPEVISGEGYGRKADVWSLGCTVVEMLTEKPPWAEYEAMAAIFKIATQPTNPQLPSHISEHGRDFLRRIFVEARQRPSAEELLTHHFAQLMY
Sequence of UniProt P57078 (whole entry, looked up): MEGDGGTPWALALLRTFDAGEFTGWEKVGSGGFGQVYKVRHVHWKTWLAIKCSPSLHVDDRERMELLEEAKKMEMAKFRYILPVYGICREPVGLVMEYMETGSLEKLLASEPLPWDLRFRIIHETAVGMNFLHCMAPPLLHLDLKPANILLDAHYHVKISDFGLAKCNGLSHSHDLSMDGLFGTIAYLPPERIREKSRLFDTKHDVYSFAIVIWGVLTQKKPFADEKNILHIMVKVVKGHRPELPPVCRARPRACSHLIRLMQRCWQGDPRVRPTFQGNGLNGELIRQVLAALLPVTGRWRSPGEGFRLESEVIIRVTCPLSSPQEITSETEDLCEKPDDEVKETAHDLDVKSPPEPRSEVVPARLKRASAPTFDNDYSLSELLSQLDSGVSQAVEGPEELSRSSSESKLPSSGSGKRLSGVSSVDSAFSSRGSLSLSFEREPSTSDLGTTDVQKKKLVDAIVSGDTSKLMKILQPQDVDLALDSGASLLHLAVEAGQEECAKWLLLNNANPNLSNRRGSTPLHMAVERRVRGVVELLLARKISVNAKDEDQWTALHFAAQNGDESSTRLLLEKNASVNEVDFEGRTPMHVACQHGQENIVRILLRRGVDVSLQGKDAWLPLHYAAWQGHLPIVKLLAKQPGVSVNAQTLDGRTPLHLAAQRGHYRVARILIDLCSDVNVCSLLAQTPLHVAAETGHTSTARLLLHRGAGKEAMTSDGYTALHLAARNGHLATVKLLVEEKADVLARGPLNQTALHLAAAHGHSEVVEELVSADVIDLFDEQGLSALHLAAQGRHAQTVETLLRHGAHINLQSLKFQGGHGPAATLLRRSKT
Sequence of UniProt P07333 (whole entry, looked up): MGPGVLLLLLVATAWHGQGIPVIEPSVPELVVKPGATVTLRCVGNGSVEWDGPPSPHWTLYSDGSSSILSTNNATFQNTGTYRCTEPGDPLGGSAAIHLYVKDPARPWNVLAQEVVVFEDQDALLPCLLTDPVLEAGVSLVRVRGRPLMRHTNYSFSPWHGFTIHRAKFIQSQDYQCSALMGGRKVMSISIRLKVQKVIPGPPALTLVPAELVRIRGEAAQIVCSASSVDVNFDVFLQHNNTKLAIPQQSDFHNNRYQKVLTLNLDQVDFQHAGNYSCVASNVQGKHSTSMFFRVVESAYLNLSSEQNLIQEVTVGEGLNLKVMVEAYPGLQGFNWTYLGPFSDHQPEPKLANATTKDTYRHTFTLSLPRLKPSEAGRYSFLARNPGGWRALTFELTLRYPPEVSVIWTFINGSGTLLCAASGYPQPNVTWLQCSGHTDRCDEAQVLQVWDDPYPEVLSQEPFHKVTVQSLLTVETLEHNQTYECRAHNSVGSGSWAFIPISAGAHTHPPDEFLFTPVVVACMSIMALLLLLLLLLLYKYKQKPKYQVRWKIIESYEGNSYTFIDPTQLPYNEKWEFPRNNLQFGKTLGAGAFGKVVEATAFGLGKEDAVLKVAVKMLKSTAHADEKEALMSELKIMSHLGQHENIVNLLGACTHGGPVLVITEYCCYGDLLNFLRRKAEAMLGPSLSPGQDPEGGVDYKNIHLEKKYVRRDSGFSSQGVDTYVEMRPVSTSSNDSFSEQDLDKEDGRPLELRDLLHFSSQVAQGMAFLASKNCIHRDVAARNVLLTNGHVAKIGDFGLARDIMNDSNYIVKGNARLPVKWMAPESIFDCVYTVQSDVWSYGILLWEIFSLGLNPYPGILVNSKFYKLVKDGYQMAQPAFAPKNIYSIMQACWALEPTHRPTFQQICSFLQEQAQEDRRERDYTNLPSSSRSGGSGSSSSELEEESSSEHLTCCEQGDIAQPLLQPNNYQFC
Sequence of UniProt O95835 (whole entry, looked up): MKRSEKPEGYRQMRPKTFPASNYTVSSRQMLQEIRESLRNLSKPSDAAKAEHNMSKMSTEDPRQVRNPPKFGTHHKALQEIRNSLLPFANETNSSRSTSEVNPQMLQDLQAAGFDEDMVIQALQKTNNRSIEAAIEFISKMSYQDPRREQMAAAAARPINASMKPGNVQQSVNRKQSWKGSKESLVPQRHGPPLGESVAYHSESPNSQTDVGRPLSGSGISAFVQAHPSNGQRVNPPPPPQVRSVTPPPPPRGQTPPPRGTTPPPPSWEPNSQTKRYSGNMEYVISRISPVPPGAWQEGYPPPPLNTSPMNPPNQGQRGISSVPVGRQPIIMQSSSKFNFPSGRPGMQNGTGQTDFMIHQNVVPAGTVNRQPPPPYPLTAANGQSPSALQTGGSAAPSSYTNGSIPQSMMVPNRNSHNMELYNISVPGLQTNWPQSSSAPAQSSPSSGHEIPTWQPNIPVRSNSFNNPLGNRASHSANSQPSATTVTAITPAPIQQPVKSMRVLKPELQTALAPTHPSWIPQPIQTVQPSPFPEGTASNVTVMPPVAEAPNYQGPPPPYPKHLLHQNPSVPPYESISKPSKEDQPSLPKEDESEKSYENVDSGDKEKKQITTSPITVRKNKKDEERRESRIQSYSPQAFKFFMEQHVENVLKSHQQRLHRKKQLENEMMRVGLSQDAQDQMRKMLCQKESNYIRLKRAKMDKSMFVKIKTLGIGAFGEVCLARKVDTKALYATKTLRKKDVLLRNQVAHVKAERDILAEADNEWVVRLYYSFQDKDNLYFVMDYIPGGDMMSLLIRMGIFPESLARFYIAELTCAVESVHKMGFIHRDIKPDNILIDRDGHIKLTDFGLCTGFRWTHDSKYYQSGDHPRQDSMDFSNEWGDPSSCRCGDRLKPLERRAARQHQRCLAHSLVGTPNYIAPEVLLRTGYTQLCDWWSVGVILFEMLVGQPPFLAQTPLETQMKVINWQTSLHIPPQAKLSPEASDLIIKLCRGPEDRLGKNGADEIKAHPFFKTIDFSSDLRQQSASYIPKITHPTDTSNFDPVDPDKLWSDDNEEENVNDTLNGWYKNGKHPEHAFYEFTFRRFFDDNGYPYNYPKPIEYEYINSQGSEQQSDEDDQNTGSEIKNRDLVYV
Sequence of UniProt P49674 (whole entry, looked up): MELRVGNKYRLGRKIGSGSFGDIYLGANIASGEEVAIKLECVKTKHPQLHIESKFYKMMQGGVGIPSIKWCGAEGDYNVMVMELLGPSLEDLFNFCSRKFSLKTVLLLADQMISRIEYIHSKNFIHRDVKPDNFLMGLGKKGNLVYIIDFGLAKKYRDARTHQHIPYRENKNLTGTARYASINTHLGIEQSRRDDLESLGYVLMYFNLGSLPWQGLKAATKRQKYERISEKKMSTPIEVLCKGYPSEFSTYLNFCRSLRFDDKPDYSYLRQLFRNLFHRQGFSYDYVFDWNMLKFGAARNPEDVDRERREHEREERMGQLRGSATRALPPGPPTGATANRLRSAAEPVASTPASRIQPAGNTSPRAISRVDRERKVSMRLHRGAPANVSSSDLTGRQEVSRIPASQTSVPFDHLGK

Set 1 — species: human; sample: microsomes or S9; concentration: 2 µM; time: 0.5 h; measurement: remaining compound
Cc1cc(C)n2nc(C(=O)N3CCCC34CC=CC4)cc2n1: > 99.9%
CN(C)c1ccc2c(c1)[C@H](CC(=O)c1ccccc1)C(C(=O)OCc1ccccc1)(C(=O)OCc1ccccc1)C[C@H]2c1ccccc1: 38.7%
CCOc1ccc(S(=O)(=O)N2CCC3(CC2)Nc2ccccc2-n2cccc23)cc1: 5.65%
COc1cccc(-c2[nH]ncc2CNC2(c3ccccc3F)CCCC2)c1: 0.141%
COc1cc(OC)c(NC(=O)N2Cc3c(sc4c3CCCC4)-n3cccc3C2C)cc1Cl (centres unmarked): < 1%
Cc1nc2c(c3c(n2CC2CCO2)CCCC3)c(-c2ccc(Cl)cc2)c1[C@H](OC(C)(C)C)C(=O)O (some centres unmarked): 83.7%
O=C(c1cccs1)C1C(C(=O)c2ccco2)C2(C(=O)Nc3ccccc32)C2C=Cc3ccccc3N12 (centres unmarked): 4.26%

Set 2 — cell line: mouse MPNST tumor cells; technique: high-content immunofluorescence imaging; refers to: nuclear SOX9; concentration: 10 µM; time: 12 h; setting: mean of 2 replicates; relative to: DMSO control; reading: higher = more nuclear SOX9; measurement: nuclear SOX9 intensity
CCCCCOC(=O)Nc1nc(=O)n([C@@H]2O[C@H](C)[C@@H](O)[C@H]2O)cc1F: 86.3 % of DMSO and 97.6 % of DMSO
CCOc1ccc(NC(=S)N2CCC(C(O)(c3ccccc3)c3ccccc3)CC2)cc1: 106 % of DMSO
Cc1nc2ccccn2c(=O)c1CCN1CCC(C(=O)c2ccc(F)cc2)CC1: 98.9 % of DMSO
O=C(Nc1ccc(S(=O)(=O)C(F)(F)F)cc1)C1=CCN(c2ncccc2C(F)(F)F)CC1: 149 % of DMSO

Set 3 — cell line: Huh-7; concentration: 10 µM; time: 24 h; measurement: viability
Nc1c2c(nc3ccccc13)CCCC2: 93%
O=C(OOC(=O)c1ccccc1)c1ccccc1: 101%
Cc1ccccc1N1C(=O)c2cc(S(N)(=O)=O)c(Cl)cc2NC1C (centres unmarked): 95.8%

Set 4 — effect on: enzyme activity; action: inhibitor; concentration: 0.5 µM; relative to: control; measurement: remaining activity
Target: Serine/threonine-protein kinase VRK1 (VRK1, Homo sapiens, UniProt Q99986)
Sequence of UniProt Q99986 (whole entry, looked up): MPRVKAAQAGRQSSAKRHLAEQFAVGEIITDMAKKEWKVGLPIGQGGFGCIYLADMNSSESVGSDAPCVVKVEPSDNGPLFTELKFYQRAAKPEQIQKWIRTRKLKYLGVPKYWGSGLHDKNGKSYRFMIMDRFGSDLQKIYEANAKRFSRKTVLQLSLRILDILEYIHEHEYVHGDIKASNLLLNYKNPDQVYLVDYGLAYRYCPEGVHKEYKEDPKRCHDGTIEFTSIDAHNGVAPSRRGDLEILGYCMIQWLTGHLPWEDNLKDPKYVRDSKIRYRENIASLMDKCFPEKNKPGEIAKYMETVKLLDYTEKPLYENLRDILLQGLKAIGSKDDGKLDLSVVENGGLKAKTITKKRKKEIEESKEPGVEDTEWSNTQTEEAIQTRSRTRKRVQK
CCN(CC)CCNC(=O)c1c(C)[nH]c(/C=C2\C(=O)Nc3ccc(F)cc32)c1C: 97.3%
Cn1nc2c3c(cccc31)C(=O)c1ccccc1-2: 84.1%
c1ccc(-c2[nH]ncc2-c2ccnc3ccccc23)nc1: 92.6%
COc1cc2c(cc1OC)-c1[nH]nc(Nc3cccc(F)c3)c1C2: 89.9%
CN(C)C[C@H]1CCn2c(c(C3=C(c4cn(C)c5ccccc45)C(=O)NC3=O)c3ccccc32)C1: 105%
O=C(NC(NC(=S)Nc1ccc(F)c([N+](=O)[O-])c1)C(Cl)(Cl)Cl)C(c1ccccc1)c1ccccc1 (centres unmarked): 96.7%
COc1cc2ncnc(Nc3cccc(Cl)c3)c2cc1OC: 105%
O=C(Nc1cccc(Nc2nccc(Nc3cccc(C(F)(F)F)c3)n2)c1)C1CC1: 88.2%
Cc1nc2cc3nc(-c4cccs4)cnc3cc2n1C: 95.6%
O=C1c2ccccc2-c2n[nH]c3cccc1c23: 89.2%
Cc1cc2ncc(-c3ccccc3)nc2cc1C: 101%
N#Cc1c(NC(=O)c2cccc3ccccc23)sc2c1CCCC2: 87.2%
Nc1cccc(-c2cc3c(Oc4cccc(O)c4)ncnc3[nH]2)c1: 81.6%
Cc1cn(-c2cc(NC(=O)c3ccc(C)c(Nc4nccc(-c5cccnc5)n4)c3)cc(C(F)(F)F)c2)cn1: 101%
CCOc1nc(NC(=O)Cc2cc(OC)ccc2OC)cc(N)c1C#N: 92.6%
O=C1C(Cl)=C(N2C(=O)CCC2=O)C(=O)c2ccccc21: 92.4%
COc1cc2ncnc(Nc3ccc(O)c(Br)c3)c2cc1OC: 86.4%
CN([C@@H](Cc1ccc(OS(=O)(=O)c2cccc3cnccc23)cc1)C(=O)N1CCN(c2ccccc2)CC1)S(=O)(=O)c1cccc2cnccc12: 92.1%
O=c1cc(-c2cccc3c2Sc2ccccc2S3)oc(N2CCOCC2)c1: 90.7%
Ic1cccc(CSc2nnc(-c3ccncc3)o2)c1: 93.1%
C[C@@H]1CCN(C(=O)CC#N)C[C@@H]1N(C)c1ncnc2[nH]ccc12: 100%
CCN(CC)C(=O)c1ccc(Nc2nc(OCC3CCCCC3)c3[nH]cnc3n2)cc1: 93.1%
c1ccc(-c2cnc(Nc3ccc(OCCN4CCCC4)cc3)s2)cc1: 89.1%
CCN(CC)CCNC(=O)c1c(C)[nH]c(/C=C2\C(=O)Nc3ccc(Cl)cc32)c1C: 90.7%
N#C/C(=C\c1ccc(O)c(O)c1)C(=O)NCc1ccccc1: 97%

Set 5 — species: IPF patients; measurement: any adverse event incidence
Compound: CC(C)n1cnc(-c2ccc(F)cc2)c1-c1ncc(C(=O)Nc2ccc(N3CCN(C)CC3)cc2)[nH]1
60 mg once daily, adverse event, with: standard of care: 81.8%
30 mg once daily, without standard of care: 85.7%
30 mg once daily, adverse event, with: standard of care: 63.6%

Set 6 — effect on: cell-free assay; technique: competition with immobilised ligand; concentration: 1 µM; measurement: remaining binding
Structure (SMILES): CCC(=O)N[C@H]1CC[C@@H](C(=O)N(C)c2ccc(-c3nc4ccccc4o3)cc2)C1
CSNK1E (Homo sapiens, UniProt P49674): 93%
CSF1R (Homo sapiens, UniProt P07333): 93%
MAPK4 (Homo sapiens, UniProt P31152): 100%
SRPK1 (Homo sapiens, UniProt Q96SB4): 100%
COQ8B (Homo sapiens, UniProt Q96D53): 74%
ZAP70 (Homo sapiens, UniProt P43403): 82%
MAP3K3 (Homo sapiens, UniProt Q99759): 89%
RIPK4 (Homo sapiens, UniProt P57078): 50%
MET (Homo sapiens, UniProt P08581, M1250T): 92%
NEK5 (Homo sapiens, UniProt Q6P3R8): 100%
LATS1 (Homo sapiens, UniProt O95835): 48%

For quick reference, copied from above (set 4):
COc1cc2ncnc(Nc3ccc(O)c(Br)c3)c2cc1OC: 86.4%
CN([C@@H](Cc1ccc(OS(=O)(=O)c2cccc3cnccc23)cc1)C(=O)N1CCN(c2ccccc2)CC1)S(=O)(=O)c1cccc2cnccc12: 92.1%
O=c1cc(-c2cccc3c2Sc2ccccc2S3)oc(N2CCOCC2)c1: 90.7%
Ic1cccc(CSc2nnc(-c3ccncc3)o2)c1: 93.1%
C[C@@H]1CCN(C(=O)CC#N)C[C@@H]1N(C)c1ncnc2[nH]ccc12: 100%
CCN(CC)C(=O)c1ccc(Nc2nc(OCC3CCCCC3)c3[nH]cnc3n2)cc1: 93.1%
c1ccc(-c2cnc(Nc3ccc(OCCN4CCCC4)cc3)s2)cc1: 89.1%
CCN(CC)CCNC(=O)c1c(C)[nH]c(/C=C2\C(=O)Nc3ccc(Cl)cc32)c1C: 90.7%
